Assay results pooled from the literature.
Every numbered part comes from another study and shows a few of its results, in no order.
Chain of UniProt Q07912 (whole entry, looked up): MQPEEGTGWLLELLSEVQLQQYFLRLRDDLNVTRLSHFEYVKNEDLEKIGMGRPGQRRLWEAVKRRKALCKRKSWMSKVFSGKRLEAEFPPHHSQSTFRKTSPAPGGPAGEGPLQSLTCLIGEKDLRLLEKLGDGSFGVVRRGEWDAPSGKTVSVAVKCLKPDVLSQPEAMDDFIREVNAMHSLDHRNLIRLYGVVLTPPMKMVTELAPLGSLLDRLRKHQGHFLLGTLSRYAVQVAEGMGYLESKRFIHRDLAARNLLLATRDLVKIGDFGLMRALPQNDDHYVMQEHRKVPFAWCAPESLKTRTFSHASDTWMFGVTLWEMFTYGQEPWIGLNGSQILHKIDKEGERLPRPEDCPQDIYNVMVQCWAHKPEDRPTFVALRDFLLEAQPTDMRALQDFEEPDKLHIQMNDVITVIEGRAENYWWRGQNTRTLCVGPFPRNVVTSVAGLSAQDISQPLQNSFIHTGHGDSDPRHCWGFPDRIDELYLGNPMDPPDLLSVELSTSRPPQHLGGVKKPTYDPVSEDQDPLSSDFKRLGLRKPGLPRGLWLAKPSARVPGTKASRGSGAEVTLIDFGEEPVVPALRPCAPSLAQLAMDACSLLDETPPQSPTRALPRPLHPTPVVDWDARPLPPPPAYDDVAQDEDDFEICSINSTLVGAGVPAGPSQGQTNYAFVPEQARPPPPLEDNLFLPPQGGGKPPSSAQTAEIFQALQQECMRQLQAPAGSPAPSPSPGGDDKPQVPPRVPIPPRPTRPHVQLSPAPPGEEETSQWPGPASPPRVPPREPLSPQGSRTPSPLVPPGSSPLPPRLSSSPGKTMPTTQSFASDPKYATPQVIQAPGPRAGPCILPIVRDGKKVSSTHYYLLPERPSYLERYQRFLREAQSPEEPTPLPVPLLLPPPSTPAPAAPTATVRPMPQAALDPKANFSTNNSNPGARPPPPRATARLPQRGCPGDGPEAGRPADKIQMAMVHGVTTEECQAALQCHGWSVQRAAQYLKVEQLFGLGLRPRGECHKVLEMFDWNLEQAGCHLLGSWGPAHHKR
Chain of UniProt P21860 (whole entry, looked up): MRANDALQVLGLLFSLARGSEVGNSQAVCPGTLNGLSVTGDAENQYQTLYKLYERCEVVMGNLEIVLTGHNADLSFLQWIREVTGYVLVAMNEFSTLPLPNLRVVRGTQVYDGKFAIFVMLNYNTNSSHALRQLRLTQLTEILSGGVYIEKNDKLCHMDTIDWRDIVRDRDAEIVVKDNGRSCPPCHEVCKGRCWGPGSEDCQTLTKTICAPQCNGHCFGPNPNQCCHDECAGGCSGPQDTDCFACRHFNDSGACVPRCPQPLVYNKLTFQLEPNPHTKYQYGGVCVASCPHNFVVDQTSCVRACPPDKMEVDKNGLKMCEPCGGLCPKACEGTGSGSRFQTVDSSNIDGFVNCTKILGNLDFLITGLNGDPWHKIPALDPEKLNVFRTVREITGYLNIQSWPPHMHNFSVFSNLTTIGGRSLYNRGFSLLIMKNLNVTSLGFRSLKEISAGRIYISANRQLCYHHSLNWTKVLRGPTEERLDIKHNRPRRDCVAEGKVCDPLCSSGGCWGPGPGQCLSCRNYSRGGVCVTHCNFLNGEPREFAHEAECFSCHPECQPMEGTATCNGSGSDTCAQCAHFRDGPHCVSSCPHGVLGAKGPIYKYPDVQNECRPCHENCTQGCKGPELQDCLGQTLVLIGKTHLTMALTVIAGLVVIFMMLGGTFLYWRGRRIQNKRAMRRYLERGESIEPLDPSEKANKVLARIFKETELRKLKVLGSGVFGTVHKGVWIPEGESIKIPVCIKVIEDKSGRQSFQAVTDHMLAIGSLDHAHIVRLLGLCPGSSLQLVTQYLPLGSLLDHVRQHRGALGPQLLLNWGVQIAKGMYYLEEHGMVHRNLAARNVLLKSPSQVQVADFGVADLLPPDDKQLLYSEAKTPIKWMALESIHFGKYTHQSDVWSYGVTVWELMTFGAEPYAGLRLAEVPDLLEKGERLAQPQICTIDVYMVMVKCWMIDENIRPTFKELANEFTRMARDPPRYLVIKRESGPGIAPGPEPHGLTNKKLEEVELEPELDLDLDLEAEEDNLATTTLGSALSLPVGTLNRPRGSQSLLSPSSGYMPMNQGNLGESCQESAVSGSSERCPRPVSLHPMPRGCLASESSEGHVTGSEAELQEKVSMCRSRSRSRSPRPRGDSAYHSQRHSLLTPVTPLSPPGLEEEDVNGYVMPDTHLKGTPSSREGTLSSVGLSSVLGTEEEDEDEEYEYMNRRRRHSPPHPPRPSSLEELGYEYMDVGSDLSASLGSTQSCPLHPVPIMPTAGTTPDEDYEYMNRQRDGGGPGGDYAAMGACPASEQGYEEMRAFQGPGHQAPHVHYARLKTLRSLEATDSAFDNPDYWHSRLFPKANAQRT
Chain of UniProt Q13043 (whole entry, looked up): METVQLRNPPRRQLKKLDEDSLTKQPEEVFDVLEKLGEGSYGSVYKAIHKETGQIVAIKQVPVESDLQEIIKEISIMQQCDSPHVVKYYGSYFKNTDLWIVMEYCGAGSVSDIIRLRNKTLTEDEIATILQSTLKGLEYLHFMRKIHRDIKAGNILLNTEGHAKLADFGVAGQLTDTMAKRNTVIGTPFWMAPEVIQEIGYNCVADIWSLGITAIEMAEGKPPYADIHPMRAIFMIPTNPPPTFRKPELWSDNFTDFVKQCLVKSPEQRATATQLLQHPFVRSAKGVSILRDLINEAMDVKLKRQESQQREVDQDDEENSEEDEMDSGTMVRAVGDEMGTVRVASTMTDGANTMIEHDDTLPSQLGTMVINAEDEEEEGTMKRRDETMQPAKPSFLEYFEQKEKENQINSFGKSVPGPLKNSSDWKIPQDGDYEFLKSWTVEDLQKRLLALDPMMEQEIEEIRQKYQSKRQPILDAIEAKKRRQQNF
Chain of UniProt P48729 (whole entry, looked up): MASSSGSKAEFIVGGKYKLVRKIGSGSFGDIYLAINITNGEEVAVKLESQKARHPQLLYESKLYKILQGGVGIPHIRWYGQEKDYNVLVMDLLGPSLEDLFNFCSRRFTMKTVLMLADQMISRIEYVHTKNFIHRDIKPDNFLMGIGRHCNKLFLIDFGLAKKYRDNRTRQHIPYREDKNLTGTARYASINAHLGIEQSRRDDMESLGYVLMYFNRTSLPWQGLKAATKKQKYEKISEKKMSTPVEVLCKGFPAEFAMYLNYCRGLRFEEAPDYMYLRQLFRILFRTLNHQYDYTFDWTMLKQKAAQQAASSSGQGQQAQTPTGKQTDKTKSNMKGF
Chain of UniProt P21802 (whole entry, looked up): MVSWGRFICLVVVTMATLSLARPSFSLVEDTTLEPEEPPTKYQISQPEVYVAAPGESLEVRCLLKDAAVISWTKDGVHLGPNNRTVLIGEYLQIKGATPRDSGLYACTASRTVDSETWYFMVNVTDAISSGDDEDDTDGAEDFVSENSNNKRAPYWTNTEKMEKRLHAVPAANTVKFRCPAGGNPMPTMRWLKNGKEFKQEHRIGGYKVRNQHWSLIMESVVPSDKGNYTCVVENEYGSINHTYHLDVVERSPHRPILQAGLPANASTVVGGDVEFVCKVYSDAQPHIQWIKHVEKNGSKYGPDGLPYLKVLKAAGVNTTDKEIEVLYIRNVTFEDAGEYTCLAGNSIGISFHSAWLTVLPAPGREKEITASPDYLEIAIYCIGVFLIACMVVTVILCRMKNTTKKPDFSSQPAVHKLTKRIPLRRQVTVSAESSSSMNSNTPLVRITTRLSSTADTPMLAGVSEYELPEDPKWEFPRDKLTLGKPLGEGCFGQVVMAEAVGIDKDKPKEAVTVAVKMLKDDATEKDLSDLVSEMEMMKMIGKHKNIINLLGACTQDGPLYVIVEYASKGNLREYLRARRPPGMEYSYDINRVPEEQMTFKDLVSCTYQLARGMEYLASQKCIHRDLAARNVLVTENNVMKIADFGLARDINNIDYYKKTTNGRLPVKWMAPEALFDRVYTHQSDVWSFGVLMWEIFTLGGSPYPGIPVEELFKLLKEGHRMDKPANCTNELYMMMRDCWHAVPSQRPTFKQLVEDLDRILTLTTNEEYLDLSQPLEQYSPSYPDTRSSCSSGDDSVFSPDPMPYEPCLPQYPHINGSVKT

Series 1
SMILES: CC1=C(C#N)[C@@H](c2ccc3[nH]nc(C)c3c2)C(C#N)=C(c2ccc(Cl)cc2)N1
Method: competition with immobilised ligand
Tested at: 1 µM
Quantity: remaining binding
SRMS (Homo sapiens, UniProt Q9H3Y6); cell-free assay: 92.7%
MAP2K2 (Homo sapiens, UniProt P36507); cell-free assay: 100%
PRKCD (Homo sapiens, UniProt Q05655); cell-free assay: 86.3%
NEK10 (Homo sapiens, UniProt Q6ZWH5); cell-free assay: 59.6%
NLK (Homo sapiens, UniProt Q9UBE8); cell-free assay: 78.9%
STK38 (Homo sapiens, UniProt Q15208); cell-free assay: 92.3%
STK3 (Homo sapiens, UniProt Q13188); cell-free assay: 100%
STK4 (Homo sapiens, UniProt Q13043); cell-free assay: 100%
CAMK2A (Homo sapiens, UniProt Q9UQM7); cell-free assay: 100%
KIT (Homo sapiens, UniProt P10721, T670I/V559D); cell-free assay: 84.4%
SBK3 (Homo sapiens, UniProt P0C264); cell-free assay: 100%
EGFR (Homo sapiens, UniProt P00533, G719S); cell-free assay: 86.8%
TNK2 (Homo sapiens, UniProt Q07912); cell-free assay: 100%
CSNK1A1 (Homo sapiens, UniProt P48729); cell-free assay: 64.7%
SGK3 (Homo sapiens, UniProt Q96BR1); cell-free assay: 84.5%
CLK1 (Homo sapiens, UniProt P49759); cell-free assay: 100%
SRPK2 (Homo sapiens, UniProt P78362); cell-free assay: 100%
ROCK1 (Homo sapiens, UniProt Q13464); cell-free assay: 68.5%
ERBB3 (Homo sapiens, UniProt P21860); cell-free assay: 63.9%
CILK1 (Homo sapiens, UniProt Q9UPZ9); binding: 76.2%
Tyrosine-protein kinase ABL1, non-phosphorylated (ABL1, Homo sapiens, UniProt P00519, H396P); cell-free assay: 79.9%
HIPK1 (Homo sapiens, UniProt Q86Z02); cell-free assay: 56.7%
MAP3K14 (Homo sapiens, UniProt Q99558); cell-free assay: 100%
FGFR2 (Homo sapiens, UniProt P21802); cell-free assay: 74.3%
YES1 (Homo sapiens, UniProt P07947); cell-free assay: 100%

Series 2
Target: Serine/threonine-protein kinase VRK1 (VRK1, Homo sapiens, UniProt Q99986)
Observed: enzyme activity
Mode: inhibitor
Tested at: 0.5 µM
Relative to: control
Quantity: remaining activity
Residues (Q99986 1-396): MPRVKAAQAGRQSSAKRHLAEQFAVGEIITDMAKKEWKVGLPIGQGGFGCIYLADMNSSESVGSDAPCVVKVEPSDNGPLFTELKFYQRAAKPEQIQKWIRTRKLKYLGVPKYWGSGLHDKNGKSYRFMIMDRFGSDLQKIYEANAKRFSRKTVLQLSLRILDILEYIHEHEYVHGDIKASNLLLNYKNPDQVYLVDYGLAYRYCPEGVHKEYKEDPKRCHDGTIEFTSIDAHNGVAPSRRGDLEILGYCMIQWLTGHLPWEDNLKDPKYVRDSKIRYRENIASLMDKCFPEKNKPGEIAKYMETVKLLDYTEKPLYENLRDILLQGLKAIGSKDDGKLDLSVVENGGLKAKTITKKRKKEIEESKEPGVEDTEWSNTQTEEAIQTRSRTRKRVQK
Clc1ccc(Nc2nnc(Cc3ccncc3)c3ccccc23)cc1: 109%
CC(C)(C)c1nc2c3cc[nH]c(=O)c3c3cc(F)ccc3c2[nH]1: 82.2%
CCCCc1c(-c2ccc(O)cc2)[nH]c2nccnc12: 87.9%
Nc1nc(Nc2ccc(S(N)(=O)=O)cc2)nn1C(=S)Nc1c(F)cccc1F: 94.6%
c1cc(-c2cnn3cc(-c4ccc(OCCN5CCCCC5)cc4)cnc23)ccn1: 86%
O=C(O)/C=C/c1cc(Br)c(Br)c(Br)c1Br: 89.8%
N#CC(c1ccnc(NCCc2cccnc2)n1)c1nc2ccccc2s1 (centres unmarked): 94.1%
N#C/C(=C(/N)SC1C=CC=CC1)c1cccc(C(O)c2ccncc2)c1 (centres unmarked): 95.9%
O=C1NC(=O)/C(=C/c2ccc3c(c2)OC(F)(F)O3)S1: 85.6%
O=Nc1c(-c2c(O)[nH]c3ccccc23)[nH]c2ccccc12: 86.3%
COc1cc2c(Nc3ccc(Br)cc3F)ncnc2cc1OCC1CCN(C)CC1: 98.9%
CCN(CC)CCCCN1c2ccccc2Oc2ccc(Cl)cc21: 101%
CC(C)N(CCC(=O)c1ccc2ccccc2c1)Cc1ccccc1: 95.8%
NC(=O)c1cccc(-c2cc(Nc3ccc(OC(F)(F)F)cc3)ncn2)c1: 97.9%
FC(F)(F)c1ccc(/C=C/c2nc(COc3ccc(CCCCn4ccnn4)cc3)co2)cc1: 99.8%
CC(C)n1cnc2c(Nc3cccc(Cl)c3)nc(NCCO)nc21: 96.3%
O=c1c(-c2ccc(F)cc2)c(-c2ccncc2)[nH]n1-c1ccc(Cl)cc1: 92.9%
C[C@@H](N)[C@H]1CC[C@H](C(=O)Nc2ccncc2)CC1: 101%
NC(=O)c1ccc(-c2nc(-c3ccc4c(c3)OCCO4)c(-c3ccccn3)[nH]2)cc1: 92.6%
O=C(c1ccccc1)c1ccc(N2CCOCC2)cc1O: 89.7%
O=C1c2ccccc2-c2nc3nnnn3nc21: 90.5%
COc1cc2c(N3CCN(C(=O)Nc4ccc(OC(C)C)cc4)CC3)ncnc2cc1OCCCN1CCCCC1: 100%
CNc1cc2c(Nc3cccc(Br)c3)ncnc2cn1: 90.2%

Series 3
Target: Beta-1 adrenergic receptor (ADRB1, Homo sapiens, UniProt P08588)
Chain of UniProt P08588 (whole entry, looked up): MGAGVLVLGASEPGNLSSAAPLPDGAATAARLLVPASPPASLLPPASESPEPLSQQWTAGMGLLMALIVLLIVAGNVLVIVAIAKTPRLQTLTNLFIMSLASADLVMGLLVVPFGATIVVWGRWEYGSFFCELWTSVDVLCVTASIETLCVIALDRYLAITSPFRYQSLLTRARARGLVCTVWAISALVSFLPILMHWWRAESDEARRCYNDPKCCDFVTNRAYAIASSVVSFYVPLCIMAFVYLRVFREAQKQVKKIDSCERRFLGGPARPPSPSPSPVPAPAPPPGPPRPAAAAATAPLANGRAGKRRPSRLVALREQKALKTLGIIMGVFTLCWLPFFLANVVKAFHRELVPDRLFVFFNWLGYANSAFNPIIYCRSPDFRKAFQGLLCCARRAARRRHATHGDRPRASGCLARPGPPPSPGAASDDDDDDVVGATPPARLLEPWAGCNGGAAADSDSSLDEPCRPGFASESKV
Mode: agonist
Quantity: EC50
OC(c1nc(Nc2cccc(N3CCOCC3)c2)n[nH]1)C1CC1 (centres unmarked): ≥ 100 µM
COc1ccccc1OCCNCC(O)CCOc1cccc2[nH]c3ccccc3c12 (centres unmarked): ≥ 100 µM
OCc1n[nH]c2c1CN(Cc1cccc(OCC(O)CN3CCOCC3)c1)CC2 (centres unmarked): 28.2 µM
COc1ccccc1N1CCN(C(=O)c2ccc3c(c2)OCCO3)CC1: ≥ 100 µM
Cc1noc2c(N(C)C)cc(-c3ccsc3)nc12: ≥ 100 µM
CC(C)(C)CC(O)CNc1nc(C(F)(F)F)ns1 (centres unmarked): ≥ 100 µM
O=C1c2c(nc(CNCc3cccc(Cl)c3)n2Cc2ccccc2)NCCN1CCOc1ccccc1: ≥ 100 µM
O=c1oc2ccc(Br)cc2cc1-c1nc2c(s1)CCc1ccccc1-2: ≥ 100 µM
CN(C)c1ccc(Nc2ncnc3sc4c(c23)CCCC4)cc1: ≥ 100 µM
Cc1cc(C(C)Nc2ccccc2)c2nc(N3CCOCC3)cc(=O)n2c1 (centres unmarked): ≥ 100 µM
c1cnc2c(CN3CCN(c4ccc5nccnc5n4)CC3)cccc2c1: ≥ 100 µM
COc1ccccc1N1CCN(C(=O)c2ccc3[nH]c(C)c(C)c3c2)CC1: ≥ 100 µM
C=CCNC(=O)[C@@H]1Cc2cn(CC#CC)c3cccc(c23)[C@H](CC(C)C)N1: ≥ 100 µM
Cc1noc2c(-c3cnn(C)c3)cc(-c3cccnc3)nc12: ≥ 100 µM
Fc1ccc(-c2noc([C@@H]3Cc4[nH]cnc4CN3CCCc3ccccc3)n2)cc1Cl: ≥ 100 µM
Cc1cc(=O)oc2cc(NC(=O)[C@H](CCCCN)NC(=O)[C@H](CC3CCCCC3)NC(=O)OCC3c4ccccc4-c4ccccc43)ccc12: ≥ 100 µM
Cc1noc2c(-c3cccnc3NCCN(C)C)cc(-c3ccccc3)nc12: ≥ 100 µM
COc1ccc(-c2cnc3[nH]nc(-c4ccc(F)cc4C)c3n2)cn1: ≥ 100 µM
O=C1CCCC2=C1C(c1ccc(O)cc1)Nc1ccc(C(=O)c3ccccc3)cc1N2 (centres unmarked): ≥ 100 µM

Series 4
Target: Eukaryotic initiation factor 4A-I (EIF4A1, Homo sapiens, UniProt P60842)
Chain of UniProt P60842 (whole entry, looked up): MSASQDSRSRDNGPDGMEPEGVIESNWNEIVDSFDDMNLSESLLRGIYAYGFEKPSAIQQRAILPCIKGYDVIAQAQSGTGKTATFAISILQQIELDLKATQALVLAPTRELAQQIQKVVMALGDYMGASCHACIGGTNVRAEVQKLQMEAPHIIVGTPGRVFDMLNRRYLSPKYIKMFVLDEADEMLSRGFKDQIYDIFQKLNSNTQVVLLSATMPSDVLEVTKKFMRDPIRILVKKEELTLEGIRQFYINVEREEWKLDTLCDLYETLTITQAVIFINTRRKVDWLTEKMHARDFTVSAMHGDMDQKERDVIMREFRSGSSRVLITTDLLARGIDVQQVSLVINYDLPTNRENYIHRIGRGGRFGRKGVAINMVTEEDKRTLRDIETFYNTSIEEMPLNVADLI
Observed: RNA clamping
Method: fluorescence polarization
Tested at: concentration not given
Together with: FAM-labelled poly r(AG)8 RNA
Direction: higher = more clamping
Quantity: fluorescence polarization change
COc1ccc([C@@]23Oc4cc(O)cc(OC)c4[C@]2(O)[C@H](O)[C@H](C(=O)c2ccco2)[C@H]3c2ccccc2)cc1: 12.7 mP
C#CCCC1(CCOc2ccc([C@@H]3[C@@H](C(=O)c4ccco4)[C@@H](O)[C@@]4(O)c5c(OC)cc(OC)cc5O[C@@]34c3ccc(OC)cc3)cc2)N=N1: 0.7 mP
COC(=O)[C@H]1[C@@H](O)[C@@]2(O)c3c(F)cccc3N(C)[C@@]2(c2ccc(OC)cc2)[C@@H]1c1ccccc1: 2 mP
COC(=O)[C@@H]1[C@@H](c2ccccc2)[C@]2(c3ccc(OC)cc3)Oc3cc(OC)cc(OC)c3[C@@]23OC(c2ccc(OCc4ccccc4)cc2)=N[C@@]13O: -0.6 mP
COc1ccc([C@]23[C@@H](c4ccccc4)C[C@@H](O)[C@@]2(O)c2c(F)cccc2N3C)cc1: 13.8 mP
COC(=O)/C=C/n1c(-c2ccccc2)nc2c(c1=O)[C@@H](c1ccccc1)[C@]1(c3ccc(OC)cc3)Oc3cc(OC)cc(OC)c3[C@]21O: 5.2 mP
COCCN[C@@]12/C(=N/O)C[C@@H](c3ccccc3)[C@]1(c1ccc(OC)cc1)Oc1cc(OC)cc(OC)c12: -4.6 mP
COC(=O)[C@@H]1[C@@H](c2ccccc2)[C@]2(c3ccc(OC)cc3)Oc3cc(OC)cc(OC)c3[C@@]23NC(c2ccc(Br)cc2)=N[C@@]13O: 14 mP
C#CCNC(=O)/C=C/Cn1c(-c2ccccc2)nc2c(c1=O)[C@@H](c1ccccc1)[C@]1(c3ccc(OC)cc3)Oc3cc(OC)cc(OC)c3[C@]21O: 23.7 mP
COc1cc(OC)c2c(c1)O[C@@]1(c3ccc(Br)cc3)[C@H](c3ccccc3)[C@@H](C(=O)N(C)OC)[C@@H](O)[C@@]21O: 72.9 mP
COc1ccc([C@@]23Oc4cc(OC)cc(OC)c4[C@]2(O)[C@H](O)[C@H](C(=O)c2ccccc2)[C@H]3c2ccccc2)cc1: -0.2 mP
COc1ccc([C@@]23Oc4cc(OS(=O)(=O)c5ccc(C)cc5)cc(OC)c4[C@]2(O)c2nc(-c4ccccc4)n(Cc4ccccc4)c(=O)c2[C@H]3c2ccccc2)cc1: -12.2 mP
COC(=O)CCCn1c(-c2ccccc2)nc2c(c1=O)[C@@H](c1ccccc1)[C@]1(c3ccc(OC)cc3)Oc3cc(OC)cc(OC)c3[C@]21O: 24.6 mP
COC(=O)[C@H]1C(=O)[C@@]2(NCC3CCNCC3)c3c(OC)cc(OC)cc3O[C@@]2(c2ccc(OC)cc2)[C@@H]1c1ccccc1: -8.2 mP
COC(=O)[C@@H]1[C@@H](c2ccccc2)[C@]2(c3ccc(OC)cc3)Oc3cc(OC)cc(OC)c3[C@@]23NC(c2csc(C)n2)=N[C@@]13O: 27.4 mP
C#CCOc1nc(-c2ccccc2)nc2c1[C@@H](c1ccccc1)[C@]1(c3ccc(OC)cc3)Oc3cc(OCC(=O)OCC)cc(OC)c3[C@]21OCC(=O)OCC: -13.2 mP

Repeated from above (series 4):
COc1ccc([C@@]23Oc4cc(OS(=O)(=O)c5ccc(C)cc5)cc(OC)c4[C@]2(O)c2nc(-c4ccccc4)n(Cc4ccccc4)c(=O)c2[C@H]3c2ccccc2)cc1: -12.2 mP
COC(=O)CCCn1c(-c2ccccc2)nc2c(c1=O)[C@@H](c1ccccc1)[C@]1(c3ccc(OC)cc3)Oc3cc(OC)cc(OC)c3[C@]21O: 24.6 mP
COC(=O)[C@H]1C(=O)[C@@]2(NCC3CCNCC3)c3c(OC)cc(OC)cc3O[C@@]2(c2ccc(OC)cc2)[C@@H]1c1ccccc1: -8.2 mP
COC(=O)[C@@H]1[C@@H](c2ccccc2)[C@]2(c3ccc(OC)cc3)Oc3cc(OC)cc(OC)c3[C@@]23NC(c2csc(C)n2)=N[C@@]13O: 27.4 mP
C#CCOc1nc(-c2ccccc2)nc2c1[C@@H](c1ccccc1)[C@]1(c3ccc(OC)cc3)Oc3cc(OCC(=O)OCC)cc(OC)c3[C@]21OCC(=O)OCC: -13.2 mP
